Published values gathered from unrelated publications.
Protocols differ between the studies behind these lines.
Organism: Staphylococcus simulans
Strain: 22

For `CC(C)CCCCCCCCC/C=C/C(=O)N[C@@H](CC(=O)O)C(=O)N[C@H]1CNC(=O)[C@@H]2CCCN2C(=O)[C@H](C(C)C)NC(=O)[C@@H](CN)NC(=O)CNC(=O)[C@H](CC(=O)O)NC(=O)CNC(=O)[C@H](CC(=O)O)NC(=O)[C@H](CC(=O)O)NC(=O)[C@H]2CCCCN2C1=O`, the MIC was 8 µg/mL (broth microdilution; Mueller-Hinton broth, Mg2+ 10 mg/L; 16 h, 30 °C, with: Ca2+ 2.5 mM).
With `CC[C@H](C)[C@H](NC(=O)[C@@H](CCC(=O)O)NC(=O)[C@H](CC(C)C)NC(=O)c1cccc(C(=O)O)n1)C(=O)N[C@H]1CCCCNC(=O)[C@H](CC(N)=O)NC(=O)[C@@H](CC(=O)O)NC(=O)[C@H](Cc2c[nH]cn2)NC(=O)[C@@H](Cc2ccccc2)NC(=O)[C@H]([C@@H](C)CC)NC(=O)[C@@H](CCCN)NC1=O` the MIC was over 64 µg/mL (18 h, 37 °C, 0.3 mM ZnSO4 LB).
`Cc1ccc2[nH]c3c(c2c1)CCCC3NCCc1ccc(O)cc1` (stereo not shown) has an MIC of 16 µg/mL (broth microdilution).
For `CC[C@H](C)[C@H](NC(=O)[C@@H](CCC(=O)O)NC(=O)[C@H](CC(C)C)NC(=O)c1cccc(-c2ccccn2)n1)C(=O)N[C@H]1CCCCNC(=O)[C@H](CC(N)=O)NC(=O)[C@@H](CC(=O)O)NC(=O)[C@H](Cc2c[nH]cn2)NC(=O)[C@@H](Cc2ccccc2)NC(=O)[C@H]([C@@H](C)CC)NC(=O)[C@@H](CCCN)NC1=O`, the MIC was over 64 µg/mL (18 h, 37 °C, 0.3 mM ZnSO4 LB).
For `C#CCOc1ccc(CN[C@@]2(C)C[C@H](O[C@H]3[C@H](Oc4c5cc6cc4Oc4ccc(cc4Cl)[C@@H](O)[C@@H](NC(=O)[C@@H](CC(C)C)NC)C(=O)N[C@@H](CC(N)=O)C(=O)N[C@H]6C(=O)N[C@H]4C(=O)N[C@H](C(=O)N[C@H](C(=O)NCC(N)=O)c6cc(O)cc(O)c6-c6cc4ccc6O)[C@H](O)c4ccc(c(Cl)c4)O5)O[C@H](CO)[C@@H](O)[C@@H]3O)O[C@@H](C)[C@H]2O)cc1OC`, the MIC was 0.149 µM (broth microdilution; cation-adjusted Mueller-Hinton broth).
`Cc1ccc2[nH]c3c(c2c1)CCCC3NCCc1ccc(Br)cc1` (stereo not shown) has an MIC of 4 µg/mL (broth microdilution).
The MIC of `CN[C@H](CC(C)C)C(=O)N[C@H]1C(=O)N[C@@H](CC(N)=O)C(=O)N[C@H]2C(=O)N[C@H]3C(=O)N[C@H](C(=O)N[C@H](C(=O)NCC(N)=O)c4cc(O)cc(O)c4-c4cc3ccc4O)[C@H](O)c3ccc(c(Cl)c3)Oc3cc2cc(c3O[C@@H]2O[C@H](CO)[C@@H](O)[C@H](O)[C@H]2O[C@H]2C[C@](C)(NCc3ccc(OCc4cn(CC(=O)N[C@H](C(=O)N[C@@H](CCN)C(=O)N[C@H]5CCNC(=O)[C@H]([C@@H](C)O)NC(=O)[C@H](CCN)NC(=O)[C@H](CCN)NC(=O)[C@H](CC(C)C)NC(=O)[C@@H](CC(C)C)NC(=O)[C@H](CCN)NC5=O)[C@@H](C)O)nn4)c(OC)c3)[C@H](O)[C@H](C)O2)Oc2ccc(cc2Cl)[C@H]1O` is reported as at most 0.003 µM (broth microdilution; cation-adjusted Mueller-Hinton broth).
`CC[C@H](C)[C@H](N)C(=O)N[C@@H](C)C(=O)N[C@@H](CC(C)C)C(=O)N[C@H](CCC(=O)O)C(=O)N[C@H](C(=O)N[C@H]1CCCCNC(=O)[C@H](CC(N)=O)NC(=O)[C@@H](CC(=O)O)NC(=O)[C@H](Cc2c[nH]cn2)NC(=O)[C@@H](Cc2ccccc2)NC(=O)[C@H]([C@@H](C)CC)NC(=O)[C@@H](CCCN)NC1=O)[C@@H](C)CC` gave an MIC of over 64 µg/mL (18 h, 37 °C, 0.3 mM ZnSO4 LB).
With `CC(C)CCCCCCCCC/C=C/C(=O)N[C@@H](CC(N)=O)C(=O)N[C@H]1CNC(=O)[C@@H]2CCCN2C(=O)[C@H](C(C)C)NC(=O)[C@@H](CN)NC(=O)CNC(=O)[C@H](CC(=O)O)NC(=O)CNC(=O)[C@H](CC(=O)O)NC(=O)[C@H](CC(=O)O)NC(=O)[C@H]2CCCCN2C1=O` the MIC was 4 µg/mL (broth microdilution; Mueller-Hinton broth, Mg2+ 10 mg/L; 16 h, 30 °C, with: Ca2+ 2.5 mM).
With `CN[C@H](CC(C)C)C(=O)N[C@H]1C(=O)N[C@@H](CC(N)=O)C(=O)N[C@H]2C(=O)N[C@H]3C(=O)N[C@H](C(=O)N[C@H](C(=O)O)c4cc(O)cc(O)c4-c4cc3ccc4O)[C@H](O)c3ccc(c(Cl)c3)Oc3cc2cc(c3O[C@@H]2O[C@H](CO)[C@@H](O)[C@H](O)[C@H]2O[C@H]2C[C@](C)(NCc3ccc(OCc4cn(CC(=O)N[C@H](C(=O)N[C@@H](CCN)C(=O)N[C@H]5CCNC(=O)[C@H]([C@@H](C)O)NC(=O)[C@H](CCN)NC(=O)[C@H](CCN)NC(=O)[C@H](CC(C)C)NC(=O)[C@@H](CC(C)C)NC(=O)[C@H](CCN)NC5=O)[C@@H](C)O)nn4)c(OC)c3)[C@H](O)[C@H](C)O2)Oc2ccc(cc2Cl)[C@H]1O` the MIC was 0.012 µM (broth microdilution; cation-adjusted Mueller-Hinton broth).
